Measured values gathered from unrelated publications.
Protocols differ between the studies behind these lines. ≈ marks a conversion by molar mass, not a printed value.
Chain of UniProt Q07157 (whole entry, looked up): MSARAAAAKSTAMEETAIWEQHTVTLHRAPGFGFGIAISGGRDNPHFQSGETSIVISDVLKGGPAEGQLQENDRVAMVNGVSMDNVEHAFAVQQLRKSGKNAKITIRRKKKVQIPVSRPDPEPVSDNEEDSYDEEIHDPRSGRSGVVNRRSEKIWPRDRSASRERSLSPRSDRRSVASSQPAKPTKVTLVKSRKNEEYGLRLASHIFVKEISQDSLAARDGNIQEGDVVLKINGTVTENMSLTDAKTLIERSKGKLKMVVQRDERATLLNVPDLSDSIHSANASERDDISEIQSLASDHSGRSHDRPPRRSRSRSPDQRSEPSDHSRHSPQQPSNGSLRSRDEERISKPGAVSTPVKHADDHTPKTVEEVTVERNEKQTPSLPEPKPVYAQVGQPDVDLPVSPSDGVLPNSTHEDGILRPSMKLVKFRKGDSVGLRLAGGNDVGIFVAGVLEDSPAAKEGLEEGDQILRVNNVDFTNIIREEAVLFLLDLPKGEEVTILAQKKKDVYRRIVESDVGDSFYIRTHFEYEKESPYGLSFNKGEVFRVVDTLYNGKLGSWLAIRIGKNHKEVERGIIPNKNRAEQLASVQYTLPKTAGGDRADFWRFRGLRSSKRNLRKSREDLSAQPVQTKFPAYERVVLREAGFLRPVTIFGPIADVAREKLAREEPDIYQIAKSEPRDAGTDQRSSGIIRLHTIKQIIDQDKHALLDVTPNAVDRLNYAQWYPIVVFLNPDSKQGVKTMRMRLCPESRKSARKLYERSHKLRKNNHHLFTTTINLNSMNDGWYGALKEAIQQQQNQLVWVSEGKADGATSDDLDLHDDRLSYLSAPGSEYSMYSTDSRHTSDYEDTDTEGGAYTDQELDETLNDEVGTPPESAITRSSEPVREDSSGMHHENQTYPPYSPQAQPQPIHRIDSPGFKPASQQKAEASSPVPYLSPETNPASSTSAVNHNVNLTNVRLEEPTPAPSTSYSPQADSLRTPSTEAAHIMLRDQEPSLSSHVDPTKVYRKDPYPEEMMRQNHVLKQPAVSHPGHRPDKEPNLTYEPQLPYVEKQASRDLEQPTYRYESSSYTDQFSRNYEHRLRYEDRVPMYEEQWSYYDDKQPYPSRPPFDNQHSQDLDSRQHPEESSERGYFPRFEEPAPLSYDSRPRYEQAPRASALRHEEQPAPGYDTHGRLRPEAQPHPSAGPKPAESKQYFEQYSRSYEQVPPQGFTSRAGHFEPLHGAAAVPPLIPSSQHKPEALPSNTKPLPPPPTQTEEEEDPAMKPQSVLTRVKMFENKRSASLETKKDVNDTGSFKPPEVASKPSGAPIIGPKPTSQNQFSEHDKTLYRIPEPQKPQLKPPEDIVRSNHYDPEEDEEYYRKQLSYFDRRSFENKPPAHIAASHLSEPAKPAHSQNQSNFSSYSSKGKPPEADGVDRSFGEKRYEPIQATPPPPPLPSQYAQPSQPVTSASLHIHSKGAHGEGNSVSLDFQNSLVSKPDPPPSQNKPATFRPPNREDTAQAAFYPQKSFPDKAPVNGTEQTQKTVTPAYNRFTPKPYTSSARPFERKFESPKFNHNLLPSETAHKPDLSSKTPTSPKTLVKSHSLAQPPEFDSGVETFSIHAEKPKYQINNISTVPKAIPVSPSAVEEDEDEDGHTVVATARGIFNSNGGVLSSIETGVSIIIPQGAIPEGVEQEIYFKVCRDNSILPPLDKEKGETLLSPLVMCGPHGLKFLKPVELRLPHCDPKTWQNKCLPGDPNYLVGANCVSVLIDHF
Chain of UniProt Q92731 (whole entry, looked up): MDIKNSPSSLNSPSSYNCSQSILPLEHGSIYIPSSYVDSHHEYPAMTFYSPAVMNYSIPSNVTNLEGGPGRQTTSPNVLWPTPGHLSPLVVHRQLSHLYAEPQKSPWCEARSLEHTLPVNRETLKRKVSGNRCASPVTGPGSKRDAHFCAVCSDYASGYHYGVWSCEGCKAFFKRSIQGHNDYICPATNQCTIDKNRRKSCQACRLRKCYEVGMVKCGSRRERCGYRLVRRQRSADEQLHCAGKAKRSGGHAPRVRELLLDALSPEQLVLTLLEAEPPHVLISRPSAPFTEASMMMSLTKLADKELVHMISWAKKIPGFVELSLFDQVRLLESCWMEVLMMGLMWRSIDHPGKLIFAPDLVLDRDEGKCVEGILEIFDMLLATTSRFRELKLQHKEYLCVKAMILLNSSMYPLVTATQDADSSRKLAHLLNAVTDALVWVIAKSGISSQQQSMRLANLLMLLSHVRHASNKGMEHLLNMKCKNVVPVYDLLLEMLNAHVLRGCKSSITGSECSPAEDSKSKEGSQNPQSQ

Compound | target or system | assay | test system | setting | how to read | measurement | value
CC(C)C[C@@H]1NC(=O)[C@H](CC(C)C)NC(=O)[C@H](Cc2c[nH]c3ccccc23)NC(=O)[C@H](CO)NC(=O)[C@H](Cc2c[nH]c3ccccc23)NC(=O)[C@@H]2CCCN2C(=O)[C@H](CC(C)C)NC(=O)[C@H](Cc2c[nH]cn2)NC(=O)[C@@H]2CCCN2C(=O)[C@H](CC(N)=O)NC(=O)[C@H](C)NC(=O)[C@H](Cc2ccc(O)cc2)NC(=O)[C@H](CS)NC(=O)[C@H](CCCCNC(=O)CN2CCN(CC(=O)O)CCN(CC(=O)O)CCN(CC(=O)O)CC2)NC1=O [lutetium-177 labelled] | – | – | BALB/c mice female 4T1 tumour, 4T1 tumour | intravenous, 3.7 MBq, 96 h, unblocked | – | tumour uptake | 4.79 %ID
O=C(c1cc2cccnc2n1-c1ccc(Cl)c(Cl)c1)N1CC(F)(F)C1 | – | – | mouse | intravenous, 5 mg/kg | – | mean residence time | 1.57 h
COc1ncccc1-c1cnn2ccc(N3CCN(C(=O)OC(C)C)CC3)nc12 | – | – | mouse nerve ligation model, brain | oral, 30 mg/kg, 120 min after last dose, repeat dosing day 1 | – | drug concentration | 24 µM
CC[C@H](C)[C@@H]1NC(=O)[C@@H]2CCCN2C(=O)[C@H](CC(C)C)NC(=O)[C@H](CC(C)C)NC(=O)CNC(=O)[C@@H](NC(=O)[C@@H](NC(=O)[C@H](CC(=O)O)NC(=O)CNC(=O)[C@@H](NC(=O)[C@H](C)NC(=O)CNC(=O)[C@H](CCCCN)NC(=O)[C@H](CC(C)C)NC(=O)[C@H](CC(C)C)NC(=O)[C@H](CCCCN)NC(=O)CNC(=O)[C@@H](NC(=O)[C@@H](N)CC(C)C)C(C)C)C(C)C)C(C)C)CSSC[C@@H](C(=O)O)NC1=O | – | RNA-seq, refers to: Rel mRNA | mouse traumatic brain injury, frontal cortex and hippocampus | dose not given | baseline: TBI plus compound vs TBI | log2 fold change | -1.48
COc1cc2c(Oc3ccc4[nH]c(C)cc4c3F)ccnc2cc1OCC1(N)CC1 | – | – | paediatric recurrent refractory sarcoma | 12 mg | – | grade 1 or 2 weight loss | 18.2%
CC[C@H](C)[C@H](NC(=O)[C@H](Cc1ccccc1)NC(=O)[C@H](CCC(=O)O)NC(=O)[C@H](CCCNC(=N)N)NC(=O)[C@H](C)NC(=O)[C@H](C)NC(=O)[C@H](CCC(N)=O)NC(=O)[C@H](CCC(=O)O)NC(=O)[C@H](CCC(=O)O)NC(=O)[C@H](CC(C)C)NC(=O)[C@H](Cc1ccc(O)cc1)NC(=O)[C@H](CO)NC(=O)[C@H](CO)NC(=O)[C@@H](NC(=O)[C@H](CC(=O)O)NC(=O)[C@H](CO)NC(=O)[C@@H](NC(=O)[C@H](Cc1ccccc1)NC(=O)[C@@H](NC(=O)CNC(=O)[C@H](CCC(=O)O)NC(=O)[C@H](C)NC(=O)CCc1c[nH]cn1)[C@@H](C)O)[C@@H](C)O)C(C)C)C(=O)N[C@@H](C)C(=O)N[C@@H](Cc1c[nH]c2ccccc12)C(=O)N[C@@H](CC(C)C)C(=O)N[C@H](C(=O)N[C@@H](CCCNC(=N)N)C(=O)NCC(=O)N[C@@H](CCCNC(=N)N)C(=O)N[C@@H](CCCCNC(=O)COCCOCCNC(=O)COCCOCCNC(=O)CC[C@H](NC(=O)CCCCCCCCCCCCCCCCC(=O)O)C(=O)O)C(=O)NCC(=O)NCC(=O)N[C@@H](CO)C(=O)N[C@@H](CCCCNc1c(NCCCCCN(O)C(=O)CCC(=O)NCCCCCN(O)C(=O)CCC(=O)NCCCCCN(O)C(C)=O)c(=O)c1=O)C(=O)O)C(C)C [zirconium-89 labelled] | – | – | rat, kidney | sc, 3 nmol/kg, 4 h, ex vivo | – | tissue uptake | 1.39 %ID/g
COc1ccnc(C(=O)N[C@H]2COC(=O)[C@H](Cc3ccccc3)[C@@H](OC(=O)C(C)C)[C@H](C)OC2=O)c1OCOC(=O)C(C)C | – | – | sediment, aerobic water/sediment | 20 °C, geometric mean | – | DT50 | 2.18 days
C[C@H]1CN(c2n[nH]c3nc(N[C@H]4CC[C@H](NS(=O)(=O)CCC(F)(F)F)CC4)ncc23)CCO1 | Tight junction protein 1 (TJP1, Homo sapiens, UniProt Q07157) | Kinobeads competition, refers to: TJP1 | – | 20 µM, unit not given | baseline: vehicle | remaining binding | 1.09
CC1(C)[C@H](C(=O)OCc2cccc(Oc3ccccc3)c2)[C@@H]1C=C(Cl)Cl | – | refers to: CYP2C19 | human, age 6 months, recombinant human CYP2C19 | 0.1 µM | – | enzyme contribution to clearance | 2.5%
COc1cc(Nc2ncc(F)c(Nc3ccc4c(n3)NC(=O)C(C)(C)O4)n2)cc(OC)c1OC | ESR2 (Homo sapiens, UniProt Q92731) | – | – | – | – | IC50 | > 10 µM
O=C(c1ccc(F)c(F)c1Nc1ccc(I)cc1F)N1CC(O)([C@@H]2CCCCN2)C1 | – | – | patients aged sample A to sample B years | oral, dose not given | – | AE leading treatment withdrawal | 29%
CC(=O)c1c(C)c2cnc(Nc3ccc(C4CCN(CCS(C)(=O)=O)CC4)cn3)nc2n(C2CCCC2)c1=O | – | – | human, dose-escalation trial, plasma | oral, 50 mg twice daily, day 1, single dose | – | clearance | 2580 mL/min
CC(C)[C@@H](CN1CC[C@@](C)(c2cccc(O)c2)[C@@H](C)C1)NC(=O)[C@@H]1Cc2ccc(O)cc2CN1C | – | – | rat, brain | intraperitoneal, 5 mg/kg | – | AUCtotal | 351 ng·h/g
CCC[C@@](N)(CO)CCc1ccc(OCCCCCC(C)C)cc1 | – | – | dog, male hounds, plasma | oral capsule, 5 mg/kg, geometric mean | – | AUC(0-t) | 7.28 µM·h
c1cc(-c2ccc3ncnc(Nc4ncco4)c3c2)cc(N2C[C@H]3C[C@@H]2CO3)c1 | – | – | 0.1 M phosphate buffer | pH 7.4, 25 °C | – | thermodynamic solubility | 6 µM (≈ 2.31 µg/mL)
CO[C@H]1C[C@@H]2CC[C@@H](C)[C@@](O)(O2)C(=O)C(=O)N2CCCC[C@H]2C(=O)O[C@H]([C@H](C)C[C@@H]2CC[C@@H](OC(=O)NCCOCCOCCOCCOCCOCCOCCOCCOCCC(=O)N3CCc4cc(Cn5nc(-c6ccc7oc(N)nc7c6)c6c(N)ncnc65)ccc4C3)[C@H](OC)C2)C[C@@H](O)[C@H](C)/C=C(\C)[C@@H](O)[C@@H](OC)C(=O)[C@H](C)C[C@H](C)/C=C/C=C/C=C/1C | – | phase 1 dose escalation | advanced solid tumour patients | intravenous, 12 mg weekly, grade ≥3 | – | any TRAE incidence | 33.3%
CCCSc1ccc2nc(NC(=O)OC)[nH]c2c1 | – | – | mouse, blood | oral, 50 mg/kg, tolerability, mean | – | mean platelet volume | 5.86 fL
C=CC(=O)Nc1cc(Nc2nccc(Nc3cc(Cl)c(F)cc3C(C)(C)O)n2)c(OC)cc1N1CC[C@@H](N(C)C)C1 | – | – | human | oral, dose not given, phase I clinical | – | patients with adverse event Vomiting | 31.4%
O=C(c1ccc(Cl)cc1)N1CCN2C(=O)N(OC(=O)N3CCOc4ccccc43)C(=O)C2C1 (stereo not shown) | Dipeptidyl peptidase 2 (Homo sapiens, UniProt Q9UHL4) | enzyme activity, inhibitor, MS-based ABPP | SW-620 in situ | 10 µM, 2 h, 37 °C | baseline: compound over DMSO, lower = stronger inhibition | median ratio | 1.12

For quick reference, copied from above:
Compound | target or system | assay | test system | setting | how to read | measurement | value
CC(=O)c1c(C)c2cnc(Nc3ccc(C4CCN(CCS(C)(=O)=O)CC4)cn3)nc2n(C2CCCC2)c1=O | – | – | human, dose-escalation trial, plasma | oral, 50 mg twice daily, day 1, single dose | – | clearance | 2580 mL/min
